Measurements collected from several papers.
Parts stem from different laboratories: compare values within a part only. Changes are numbered by the printed parent chain.

Block 1
Target: CCND1, cyclin fold, Cln2 fusion (human)
Method: yeast growth competition, sequencing
Sample: yeast
Notes: weak parent motif
Relative to: not given
Reading: higher = stronger binding
Parent: viral docking peptide; TSVRRALFTGGSD
Variant | normalised enrichment score
R5T | -0.262
S12Q | 0.499
R4V | 0.179
R4E | 0.199
F8G | -0.0203
G10P | 0.254
F8I | -0.242
R5W | 0.346
A6Q | 0.958
A6I | 0.781
S12E | 0.696
S2F | 0.796
G11M | 0.291
V3Q | -0.348
F8C | -0.246
V3C | 0.616
G10W | 0.616
V3R | 0.31
A6S | 0.0411
R5D | 0.131
G11N | 0.296
G10S | 0.494
S12P | 0.456
V3P | 0.561
G11R | 0.218

Block 2
Target: Phosphate system positive regulatory protein PHO4, full length, GST-tagged (PHO4, Saccharomyces cerevisiae, UniProt P07270, residues 1-312)
Method: competition protein-binding microarray
Molecule type: double-stranded DNA, one strand shown
Sample: in vitro
Tested at: 2 µM
Notes: whole 60-bp probe, lowest competitor level
Together with: Cbf1 competitor, 0.05 µM
Reading: higher = stronger binding
All sequences stand within: … GTCTTGATTCGCTTGACGCTGCTG
Construct (chain): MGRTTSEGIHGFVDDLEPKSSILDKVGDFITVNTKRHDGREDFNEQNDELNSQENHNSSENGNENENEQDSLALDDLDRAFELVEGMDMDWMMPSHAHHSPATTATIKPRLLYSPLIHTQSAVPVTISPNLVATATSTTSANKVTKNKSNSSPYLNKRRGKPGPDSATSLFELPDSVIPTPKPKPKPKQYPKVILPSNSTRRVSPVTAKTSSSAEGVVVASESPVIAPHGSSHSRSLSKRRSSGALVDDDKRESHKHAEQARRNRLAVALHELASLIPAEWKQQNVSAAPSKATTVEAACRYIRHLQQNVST
Sequence | fluorescence intensity [a.u.]
GAGCTCAAGGCGAGTCACGATGCAGAACTGGAACTT | 6540
GTATTGGATAGCCATCACGTTGTCGAACATCCGGCT | 11100
GACGCAGCGGGCTTGCTTGTGGACTGCTTGGTGGGG | 3740
GGATTACTGTAATTGCTCGTGTTGGATTGAGCGAAA | 7920
CTTCTGTAAATTTGTCACAGTACTTGACGCGCCCCG | 3220
CTCACAGATCTTCAACACGTGAAGATCGGTTGCATT | 13100
CGTCCTAGTGATTGGCGGGTGGGTGCCATGAGGAAG | 6930
TGCGCAACAACTTGTCACGTTACTTTATGTCTAGAA | 8680

Block 3
Target: HLA class I histocompatibility antigen, A alpha chain, allele A*80:01 (Homo sapiens, UniProt P04439)
Effect on: peptide-MHC binding
Molecule type: peptide
Tested at: concentration not given
Molecule | binding
FTIGNMFSL | inactive
WLYDLWGQL | inactive
NPAACSYMV | inactive
IQYVIRAQL | inactive
EFVSANLAM | inactive

Block 4
Target: TAR DNA-binding protein 43, full length, His tag (TARDBP, Homo sapiens, UniProt Q13148, residues 1-414)
Method: RNA Bind-n-Seq
Molecule type: RNA
Sample: in vitro
Tested at: 20 nM
Notes: 6-mer, flanks averaged, single round
Together with: 150 mM KCl
Relative to: input library
Reading: higher = stronger binding
Sequence | 6-mer enrichment (R)
GACCAG | 1.06
UGCGAC | 0.824
CUGUGC | 0.8
CUCUGC | 0.608
UGAGUU | 0.791
CCUCGA | 0.618
GUGGUA | 1.44
AUAUCG | 0.613

Block 5
Target: UBE2D2 UBC core domain (UniProt P62837)
UniProt P62837, sequence (whole entry, looked up): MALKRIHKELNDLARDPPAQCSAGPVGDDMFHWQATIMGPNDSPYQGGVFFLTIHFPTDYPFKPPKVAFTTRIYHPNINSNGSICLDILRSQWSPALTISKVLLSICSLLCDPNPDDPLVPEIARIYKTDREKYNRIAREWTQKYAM
Method: yeast two-hybrid
Sample: yeast
Notes: mostly zero background
Relative to: not given
Reading: higher = stronger interaction
B1: RNF43 RING domain (UniProt Q68DV7); chain SGSSCSSAPVCAICLEEFSEGQELRVISCLHEFHRNCVDPWLHQHRTCPLCMFNITEGDSFS
B2: RNF175 RING domain (UniProt Q8N4F7); chain LPTRSLSDNICAVCGQKIIVELDEEGLIENTYQLSCNHVFHEFCIRGWCIVGKKQTCPYCKEKVDLKRMIS
B3: TRIM15 RING domain (UniProt Q9C019); chain SLKVVHELPACTLCAGPLEDAVTIPCGHTFCRLCLPALSQMGAQSSGKILLCPLCQEEEQAETPMA
B4: TRIM35 RING domain (UniProt Q9UPQ4); chain PSRSFKEELLCAVCYDPFRDAVTLRCGHNFCRGCVSRCWEVQVSPTCPVCKDRASPADLRT
Molecule | lacZ reporter activity
SYEDKSNDFVCPICFDMIEEAYMTKCGHSFCYKCIHQSLEDNNRCPKCNYVVDNIDHLY (COP1 RING domain (UniProt Q8NHY2)) | 0
B1 (RNF43 RING domain) | 7810
B2 (RNF175 RING domain) | 0
B3 (TRIM15 RING domain) | 0
B4 (TRIM35 RING domain) | 0

Some of these lines once more (block 1):
Variant | normalised enrichment score
F8I | -0.242
A6S | 0.0411
R4V | 0.179
S12Q | 0.499
R4E | 0.199
S12P | 0.456
S2F | 0.796
F8C | -0.246
